Published values pooled from the literature.
A part holds a random share of what one study measured.

Series 1
Target: RNA binding protein fox-1 homolog 2, RRM domain, GST-SBP tag (RBFOX2, Homo sapiens, UniProt O43251-10, residues 100-194)
Method: RNA Bind-n-Seq
Molecule type: RNA
Medium: in vitro
Concentration: 365 nM
Notes: natural RNA segment, single round, ends assumed
Relative to: no-protein control
Reading: higher = stronger binding
Shared flanks, not repeated: GGGAGUUCUACAGUCCGACGAUC … UGGAAUUCUCGGGUGCCAA
`UUAUUGACACUUACUAAGAAAUGACAUUCUGUUAAAAAAAAUUAGGAAAAAAAUAUGGAAAAAAAAUAUCAGAGAAAAGUGUCAGAGAAAGUUGGAAGCUCAUAUCCCCA`: “RBNS enrichment (R)” 0.74.
For `CGCUGUCAACAGAAGUUAUGGUUUGUAUGUGAGCCCUUUCCUCUCAACUGCUUUACUAAGGAGCAAUGUUGUCCUGCGCCGGCACACUCAAGAUGUAUCUGAGUAGCUGC`, “RBNS enrichment (R)” read 0.368.
Under “RBNS enrichment (R)”, `AUUUUGUGAGUGUGUGAGCAUUUGAUUGGAAAUAAGAAAGUUAUUAAGUAAAUUUUUCGUUUUACUUUUUCCACAGCAGCUAACGUGUAGGGAGACAUUAAACCCACACC` is recorded as 0.622.
`AUGCUGUAUUUUUGAAGGUAUUUUGUUGUAUUAAGUUUGAUGAAGCUAAAAUUAGGGAACUCUGAACAGAUUUGCAGGAAAAAAUGUUUUAAAGGCUUUAAAACAUUAGG`: “RBNS enrichment (R)” 1.77.
Under “RBNS enrichment (R)”, `CUGUAUCCUGUGUCAUGUCCAAUCAGUUGUAAACAAUGGCAUCUUUGAACAGUGUGAUGAGAAUAGGAAUGUGGUGUUUUAAAGCAGUGUUGCAUUUUAAUCAGUAAUCU` is recorded as 0.88.
`UAAGGGGGAAAUUUCAAAUUUAUGCCUUAUAAAAUCACACUGGAAAAAAAUUGUCCCAGAUGCGUUAAGAAAUAAUAACACCCAGGGAUACUCACCCAUGCAUAGCUACC` — result for “RBNS enrichment (R)”: 0.555.
`AAUUCAAGCCAUGCCAGGAAUCUGCCUACCUGCCAGGUUCAGUUCUUUUAAGGUGCCUCUUCAGGGACACAGUGUGUCUCUCUGAUUGGGCUUCUAAAUCAAAAGCCUGA`: “RBNS enrichment (R)” 0.418.
`UAGGAUAAAAAUGCACUGGUGAAGCAAAUGUAGUGCCAACAGAAGGUGAUUUUCCAGUUGUAAAUGUCAUGCAGCAUUUGAAGGGACUGUGUUUUCUUAAAAAAAAAUCA`: “RBNS enrichment (R)” 0.454.
For `GGUUUGUUUGUUUUUGGGGAAAUUUUGAAAAGUGGAGUUGAUAUUAAAAAUAAAUGUGUAUGUGUGUACAUAUAUAUACACACACAUACACAUAUAUUAUGCAUGUGGUG`, “RBNS enrichment (R)” read 22.2.
`AUUACCAGCUGAGAAGCUCUCCGAAACCGGUGGCUACGGGACUCUUCAGCAUGGAGAGGACACCGUGCCCCAGGGGCCUGAGUCUCAGGCAGAGUCCAUCCCAAUAAUAG`: “RBNS enrichment (R)” 0.526.
`AUCUGCGCGCGGCCUAGCCCGGGCCUCAUUUCUUAUCCCCGCCAAGGGUUUCCUCUCAGUCAUUUGUUUACCAGAAACAUGAAAACUGCCUGUCUGGCCGGGCCGCACUU`: “RBNS enrichment (R)” 0.524.
Under “RBNS enrichment (R)”, `AGGAAACUUUUCUUAUAAAGAGAAAAAAAAGUUACAAUUUACUACUGCCCUAGUUAGGACAGACAUGCUUGUCUCUCCUAGGUAAAAGGUCAGGUCCCCGAGUCAUUUCU` is recorded as 0.461.

Series 2
Target: Interferon regulatory factor 5, full length, phosphomimetic (IRF5, Homo sapiens, UniProt Q13568-2, residues 1-514, K96S/S451D/S453D/S456D/S462D)
Method: protein-binding microarray
Molecule type: double-stranded DNA, one strand shown
Medium: in vitro
Concentration: 250 nM
Notes: 60-bp whole probe
Together with: salmon DNA 0.4 mg/ml
Relative to: random background probes
Reading: higher = stronger binding
Shared flanks, not repeated: GCCTAGCAC … GTCTTGATTCGCTTGACGCTGCTG
For `TTAGGTTTCGGTCTTGGTTAGTGCTAG`, the log fluorescence was 10.3 z-score.
`GACGATCCCAGTCTCGAGACGTGCTAG` gave a log fluorescence of -0.239 z-score.
For `GACGGACTGGACTTTGGGGACGTGCTA`, the log fluorescence was -0.704 z-score.
For `TTAGGTTTCATTATCCTTTAGTGCTAG`, the log fluorescence was 3.38 z-score.
`TCATCTATGTAGTTGATACTGTGCTAG` has a log fluorescence of 0.321 z-score.
`CTGATTTCCACTTTCTTAATGTGCTAG` has a log fluorescence of 2.14 z-score.
`TAATTTCCATTTTCTAAATTCGTGCTA` has a log fluorescence of 2.59 z-score.
`TTTTTTTTTTACTTCGGGTGGTGCTAG` gave a log fluorescence of 1.45 z-score.
The log fluorescence of `TTAGATATCAGCTTCGATTAGTGCTAG` is reported as 1.44 z-score.
`CCAACTCTGTTTTCGCTTTCTGTGCTA` has a log fluorescence of 4.65 z-score.
For `TCAGTTTTCTGGTTCCCACTGTGCTAG`, the log fluorescence was 1.28 z-score.
With `GACCGTATCCTTTTCCTGACGTGCTAG` the log fluorescence was 0.482 z-score.
With `TTAGATATCGGGAATCGATTAGTGCTA` the log fluorescence was 1.83 z-score.
`TCATTCCTCTTTCTTTGACTGTGCTAG` gave a log fluorescence of 1.53 z-score.
`GACGGTTTCGGAATGGGGACGTGCTAG` has a log fluorescence of 5.8 z-score.
The log fluorescence of `GACGACTTCAGTCTCGAGACGTGCTAG` is reported as -0.0914 z-score.
`TTAGGTTTCGGTCTCCGTTAGTGCTAG` gave a log fluorescence of 10.6 z-score.
The log fluorescence of `GACGAAATCGGGACTGGAGACGTGCTA` is reported as 0.32 z-score.
For `TTAGGACTGCTTTTACTTTAGTGCTAG`, the log fluorescence was 0.34 z-score.
With `CTAGGTTTCGGGACTGGGTTAGTGCTA` the log fluorescence was 5.41 z-score.
`GACGGTATCGGGTATCGGGACGTGCTA` gave a log fluorescence of 3.41 z-score.
`GCCGGTATCGGTTTCGGGACGTGCTAG` gave a log fluorescence of 9.18 z-score.
The log fluorescence of `TTAGGTATCCTTACCCTTTAGTGCTAG` is reported as 0.113 z-score.
`AATTAAATGATATATATCCATGTGCTA` has a log fluorescence of 1.01 z-score.
For `TTAGGACTGAGACTGGATTAGTGCTAG`, the log fluorescence was -0.514 z-score.

Series 3
Target: Histone acetyltransferase KAT6A, winged helix 2, GST fusion (KAT6A, Homo sapiens, UniProt Q92794, residues 85-181)
Method: protein binding microarray
Molecule type: double-stranded DNA, one strand shown
Medium: in vitro
Concentration: not given
Notes: 8-mer, flanks averaged, mean of 2 arrays, mostly near background
Relative to: not given
Reading: higher = stronger binding
Construct (chain): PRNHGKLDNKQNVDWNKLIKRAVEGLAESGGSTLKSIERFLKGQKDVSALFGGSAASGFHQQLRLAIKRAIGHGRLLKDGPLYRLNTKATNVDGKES
For `AAGCGCGA`, the E-score was 0.124.
`CACCCCAA` gave an E-score of -0.056.
With `CATTCCTA` the E-score was -0.141.
With `CCATTATA` the E-score was -0.0565.
The E-score of `GCGTGAGA` is reported as 0.0533.
The E-score of `TATTCCGA` is reported as 0.0993.
The E-score of `ACACCTAC` is reported as -0.23.
The E-score of `GTCTCCAC` is reported as 0.0415.
The E-score of `CCCTGAAC` is reported as 0.103.
`ATCGCGGC` gave an E-score of 0.222.
`CCCACCCG` has an E-score of 0.165.
`TCAACCCA` has an E-score of 0.004.
With `ACGGGCTA` the E-score was -0.116.
`CTAGCGGC` gave an E-score of 0.0616.
With `GGGCTCTA` the E-score was -0.0297.
With `ATCAACCA` the E-score was -0.0382.

Series 4
Target: Sal-like protein 4, full length isoform A (SALL4, Homo sapiens, UniProt Q9UJQ4, residues 1-1053)
Chain of UniProt Q9UJQ4 (whole entry, looked up): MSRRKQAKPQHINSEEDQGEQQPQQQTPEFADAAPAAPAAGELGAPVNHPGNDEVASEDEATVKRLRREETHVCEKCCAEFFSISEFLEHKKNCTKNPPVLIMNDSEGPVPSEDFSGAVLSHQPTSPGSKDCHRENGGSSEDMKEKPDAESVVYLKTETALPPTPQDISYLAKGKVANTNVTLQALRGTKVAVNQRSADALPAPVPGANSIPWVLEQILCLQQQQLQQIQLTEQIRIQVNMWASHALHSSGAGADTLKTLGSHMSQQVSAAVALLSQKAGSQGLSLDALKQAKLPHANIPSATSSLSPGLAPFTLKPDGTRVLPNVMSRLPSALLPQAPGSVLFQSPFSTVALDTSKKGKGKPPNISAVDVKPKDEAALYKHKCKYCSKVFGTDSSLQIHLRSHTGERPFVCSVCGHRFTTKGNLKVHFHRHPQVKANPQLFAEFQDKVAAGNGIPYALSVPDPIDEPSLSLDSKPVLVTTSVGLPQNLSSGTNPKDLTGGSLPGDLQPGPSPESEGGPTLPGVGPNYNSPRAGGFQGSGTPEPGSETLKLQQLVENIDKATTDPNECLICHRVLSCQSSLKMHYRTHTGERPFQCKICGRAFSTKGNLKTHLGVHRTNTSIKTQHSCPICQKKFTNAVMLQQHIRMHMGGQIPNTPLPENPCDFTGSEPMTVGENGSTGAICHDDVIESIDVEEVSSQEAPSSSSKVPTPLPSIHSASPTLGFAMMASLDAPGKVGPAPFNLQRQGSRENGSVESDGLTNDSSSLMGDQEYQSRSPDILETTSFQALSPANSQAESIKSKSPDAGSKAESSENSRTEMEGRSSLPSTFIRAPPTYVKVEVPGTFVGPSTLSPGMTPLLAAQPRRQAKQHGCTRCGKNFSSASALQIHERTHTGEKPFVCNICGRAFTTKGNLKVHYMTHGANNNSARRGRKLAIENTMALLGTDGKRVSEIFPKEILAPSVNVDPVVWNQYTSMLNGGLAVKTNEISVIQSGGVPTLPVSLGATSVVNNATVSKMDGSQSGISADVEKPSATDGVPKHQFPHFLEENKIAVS
Method: universal PBM
Molecule type: double-stranded DNA, one strand shown
Medium: in vitro
Concentration: 600 nM
Notes: 8-mer, flanks averaged, mean of replicates
Reading: higher = stronger binding
For `GGAGTCAC`, the E-score was -0.264.
`AGGGCCGG` gave an E-score of -0.439.
With `CGTTGGGA` the E-score was -0.115.
With `CGAATTCG` the E-score was -0.0797.
The E-score of `CAGGTGGA` is reported as -0.172.
`CTTAAGTA` gave an E-score of 0.125.
With `AGCAGGTA` the E-score was -0.00353.
For `CCGTGTAG`, the E-score was -0.124.
For `GACACAAA`, the E-score was 0.0734.
The E-score of `GAGTGCGC` is reported as -0.302.
For `CCCCTCGG`, the E-score was -0.355.
The E-score of `CAACGGAA` is reported as 0.0704.
For `CTTAAGCA`, the E-score was 0.0599.
The E-score of `ATTTACTA` is reported as 0.263.
`GGGCGAAA` has an E-score of -0.00249.
With `CGATAATC` the E-score was 0.0963.
With `CCTCGCAG` the E-score was -0.189.
For `ATGGTGAA`, the E-score was 0.00971.
For `AGAGAGTA`, the E-score was 0.0616.
`ATGAGATG` gave an E-score of 0.0365.
The E-score of `ACCCCCTC` is reported as -0.275.
For `CGTGTGCA`, the E-score was -0.134.
For `CGTGGGAG`, the E-score was -0.246.
`CGCTACTA` gave an E-score of -0.0134.

Series 5
Target: Myc proto-oncogene protein, bHLH-zipper, MAX partner unstated (MYC, Homo sapiens, UniProt P01106, residues 368-449)
Chain of UniProt P01106 (368-449, looked up): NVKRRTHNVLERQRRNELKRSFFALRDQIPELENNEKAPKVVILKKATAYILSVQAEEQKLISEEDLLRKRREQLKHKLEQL
Method: protein-binding microarray
Molecule type: double-stranded DNA, one strand shown
Medium: in vitro
Concentration: not given
Notes: k-mer, scored over probes, only values ≥0.25
Reading: higher = stronger binding
For `CATGCATC`, the E-score was 0.358.
`ACCCACCT` gave an E-score of 0.279.
For `GGTGTGGA`, the E-score was 0.275.
With `AAGCGTGC` the E-score was 0.401.
With `CACGTTGA` the E-score was 0.396.
`GAGCATGC` has an E-score of 0.424.
With `ACACCCCA` the E-score was 0.265.
With `CAACCCAC` the E-score was 0.251.
`AGACATGC` has an E-score of 0.395.
For `CCGTGGCG`, the E-score was 0.269.
For `CCGCACCC`, the E-score was 0.254.
`ACACGGTG` gave an E-score of 0.261.
`CATGCACG` has an E-score of 0.414.
`GCACATGA` gave an E-score of 0.43.
For `AGGCACAT`, the E-score was 0.38.
For `TACATGCA`, the E-score was 0.26.

For quick reference, copied from above (series 4):
The E-score of `GAGTGCGC` is reported as -0.302.
For `CCCCTCGG`, the E-score was -0.355.
The E-score of `CAACGGAA` is reported as 0.0704.
For `CTTAAGCA`, the E-score was 0.0599.
The E-score of `ATTTACTA` is reported as 0.263.
`GGGCGAAA` has an E-score of -0.00249.
With `CGATAATC` the E-score was 0.0963.
With `CCTCGCAG` the E-score was -0.189.
For `ATGGTGAA`, the E-score was 0.00971.
